Results from different studies.
Lines come from different studies, so protocols differ.

CC(=O)N[C@@H](Cc1ccccc1)C(=O)N[C@H]1CCCNC(=O)[C@H](CCCNC(=N)N)NC(=O)[C@H](Cc2c[nH]c3ccccc23)NC(=O)[C@@H](CC2CCCCC2)NC(=O)[C@@H]2CCCN2C1=O gave a Cmax of 250 ng/mL (C57BL/6J mouse, plasma; oral, 1 mg/kg, single dose).
With CC(=O)Nc1cccc(-n2c(=O)n(C3CC3)c(=O)c3c(Nc4ccc(I)cc4F)n(C)c(=O)c(C)c32)c1 the Cmax was 34.8 ng/mL (athymic nude mouse, tumour-bearing, plasma; oral, 5 mg/kg, single dose, added: sapanisertib 2 mg/kg).
The Cmax of Cc1cc(Nc2ccc(C(F)(F)F)nc2)n2nc(C(C)(F)F)nc2n1 is reported as 3110 to 33300 ng/mL (mouse, plasma; oral, 4.5 to 41.5 mg/kg).
COc1ccc(/N=C(\N)CC(O)c2cc3c(F)cc(F)cc3c3cc(C(F)(F)F)ccc23)cc1.Cl (stereo not shown) gave a Cmax of 29.1 ng/mL (mouse, dried blood spot; oral, 10 mg/kg single dose).
For Cc1cnc(Nc2ccc(OCCOc3ccc(/N=N/c4ccc(C(=O)NCCC(=O)O)cc4)cc3C(=O)O)cc2)nc1Nc1cccc(S(=O)(=O)NC(C)(C)C)c1, the Cmax was > 50000 ng/g (mouse C57BL/6 female, colon content; oral, 10 mg/kg).
The Cmax of COc1cccc2c1C(=O)c1c(O)c3c(c(O)c1C2=O)C[C@@](O)(C(=O)CO)C[C@@H]3O[C@H]1C[C@H](N)[C@H](O)[C@H](C)O1 is reported as 115 µM (mouse, E0771 tumour-bearing, heart; intravenous, 92 µmol/kg).
Cc1cc(-c2cc(OC(=O)c3ccccc3)ccc2Cl)cc2nnc(Nc3ccc(OCCN4CCCC4)cc3)nc12: Cmax “not detected” (C57BL/6 mouse, plasma; topical, 1%).
For CCOc1ccc(NC(=S)N(CCO)Cc2cc3cc(C)cc(C)c3[nH]c2=O)cc1, the Cmax was 738 ng/mL (C57BL/6J mouse, plasma; oral, 3 mg/kg, added: ABT 50 mg/kg oral pretreatment 2 h before).
For COc1cccc(CN)c1O, the Cmax was 343000 ng/mL (C57BL/6N mouse, male, plasma; intraperitoneal, 200 mg/kg).
With Cc1ccc(Nc2nccc(N(C)c3ccc4c(C)n(C)nc4c3)n2)cc1S(N)(=O)=O the Cmax was 122000 ng/mL (mouse non-tumour-bearing, plasma; oral, 150 mg/kg single, added: topotecan 1.0 mg/kg oral).

Repeated from above:
Cc1cc(-c2cc(OC(=O)c3ccccc3)ccc2Cl)cc2nnc(Nc3ccc(OCCN4CCCC4)cc3)nc12: Cmax “not detected” (C57BL/6 mouse, plasma; topical, 1%).
